Results gathered from unrelated publications.

For `CCC[C@]1(NC(=O)c2sccc2Cl)C[C@@H](O)C1`, the kinetic solubility was ≥ 1000 µM (nephelometry; HBSS with 1% DMSO; 6 h, pH 7.4).
`S=C(Nc1ccc(Cl)cc1)Nc1cccc2[nH]ccc12` has a kinetic solubility of > 100 µM (PBS with SDS; 2 h, pH 7.4, 37 °C, 1% DMSO).
The kinetic solubility of `Cc1ccc(NCC(=O)Nc2ccc(F)c(Cl)c2)cc1S(=O)(=O)N1CCOCC1` is reported as 164 µM (water).
`Cc1[nH]c(=O)c(CNC(=O)c2ccc(C(F)(F)F)cn2)c2c1CCCC2` gave a kinetic solubility of 102 µg/mL (U-HPLC; 20% DMSO in water).
For `Cc1nc(N[C@@H](C)c2ccc(-c3nc(C4CC4)no3)cc2)c2cc(C)oc2n1`, the kinetic solubility was 0.05 µM (pH 7.4).
The kinetic solubility of `Cc1[nH]c(=O)c(CNC(=O)c2ccc(C(F)(F)F)nc2)c2c1CCCC2` is reported as 132 µg/mL (U-HPLC; 20% DMSO in water).
`Cc1cnc(Nc2cc(C)c(C)c(C)c2)nc1Nc1ccc2oc(=O)[nH]c2c1` has a kinetic solubility of 1 µM (aqueous buffer; pH 6.8, hemifumarate salt).
The kinetic solubility of `COC[C@H](NC(=O)[C@H](CCc1ccccc1)NC(=O)CN1CCOCC1)C(=O)N[C@H](/C=C/S(C)(=O)=O)CC(C)C` is reported as 198 µM (water).
With `COc1cc2nc(N3CCCCC3)nc(NC3CCN(C)CC3)c2cc1OC` the kinetic solubility was 6.3 to 12.5 µg/mL (nephelometry; pH 6.5).

Repeated from above:
`Cc1[nH]c(=O)c(CNC(=O)c2ccc(C(F)(F)F)cn2)c2c1CCCC2` gave a kinetic solubility of 102 µg/mL (U-HPLC; 20% DMSO in water).
For `Cc1nc(N[C@@H](C)c2ccc(-c3nc(C4CC4)no3)cc2)c2cc(C)oc2n1`, the kinetic solubility was 0.05 µM (pH 7.4).
